Measurements from different studies.
Compare with care: the assays were run in different laboratories. ± gives the spread as reported. In brackets after ≈: the same amount, converted by molar mass.

With `Nc1nc(N)c2c(Cl)c(CNc3ccc(C(=O)O)cc3)ccc2n1` the MIC90 was 0.03 µM (≈ 0.0103 µg/mL) (Mycobacterium tuberculosis; bacterial growth; H37Rv).
Under “potentiation of amikacin”, `NC[C@@H](NC[C@@H]1CCCN1C[C@@H](CO)NC[C@@H](NCCC1CC2CCC1C2)c1ccccc1)c1ccccc1` (stereo partly drawn) is recorded as 2.4 fold (Acinetobacter baumannii; bacterial growth; 8 µM, fold shift of IC50, added: amikacin).
`O=C(O)C(=O)CC(=O)C1(Cc2ccc(Cl)cc2)CCN(Cc2ccccc2)CC1` — result for “concentration suppressing replication”: over 50 µM (Heartland virus; viral replication).
For `CC(CCN[C@H](CN[C@H](CO)CN1CCC[C@H]1CN[C@H](CN)c1ccccc1)c1ccccc1)c1ccccc1` (stereo partly drawn), “potentiation of amikacin” read 2 fold (Acinetobacter baumannii; bacterial growth; 16 µM, fold shift of IC90, added: amikacin).
`c1cn(Cc2ccc(-c3ccc4[nH]ccc4c3)cc2)cn1` — result for “MIC50 to Kd ratio”: over 2 (Mycobacterium bovis; BCG DSM 43990).
The IC50 of `CC[C@H](C)[C@H](NC(=O)[C@H](C)NC(=O)[C@H](CCC(=O)O)NC(=O)[C@H](CCC(=O)O)NC(=O)[C@H](CC(C)C)NC(=O)[C@H](CCCCN)NC(=O)[C@H](CCCCN)NC(=O)[C@H](CCSC)NC(=O)[C@H](CCC(=O)O)NC(=O)[C@H](Cc1ccc(O)cc1)NC(=O)[C@H](CCC(=O)O)NC(=O)[C@H](CC(C)C)NC(=O)[C@H](CC(=O)O)NC(=O)[C@H](CC(C)C)NC(=O)[C@H](Cc1ccccc1)NC(=O)[C@@H](NC(=O)[C@@H](NC(=O)[C@H](CC(N)=O)NC(=O)[C@@H](NC(=O)[C@H](CCC(N)=O)NC(=O)[C@H](CC(=O)O)NC(=O)[C@H](CC(C)C)NC(=O)[C@@H](N)CO)[C@@H](C)CC)C(C)C)[C@@H](C)O)C(=O)N[C@@H](CCCCN)C(=O)N[C@@H](CCCCN)C(=O)N[C@@H](CC(C)C)C(=O)N[C@@H](CCC(=O)O)C(=O)N[C@@H](CCC(=O)O)C(=O)N[C@@H](C)C(=O)N[C@@H](Cc1ccc(O)cc1)C(=O)N[C@H](C(=O)N[C@@H](CC(=O)O)C(=O)N[C@@H](CC(C)C)C(=O)N[C@@H](CCCCN)C(=O)N[C@@H](CCC(=O)O)C(=O)N[C@@H](CC(C)C)C(=O)O)[C@@H](C)CC` is reported as 0.515 µM (HCoV-OC43; viral infection, inhibitor, immunostaining; HCT-8; 2 days).
`Nc1n[nH]c(=O)[nH]1` gave an IC50 of over 32000 µM (heterotrophic aerobic bacteria; O2 uptake; activated return sludge).
`Cc1cc(=O)oc2cc(OCCCCn3cc(COc4ccc(N5C(N)=NC(N)=NC56CCCCC6)cc4)nn3)ccc12` has an MIC50 of 3.2 µM (≈ 1.87 µg/mL) (Mycobacterium bovis; BCG Tac^r2.3, fbiA L109P missense; TA-C-resistant F420 mutant).
For `O=C(CCN(CCC(=O)N[C@@H](Cc1c[nH]c2ccccc12)C(=O)O)C(=O)CCN(CCC(=O)N(CCC(=O)N[C@@H](Cc1c[nH]c2ccccc12)C(=O)O)CCC(=O)N[C@@H](Cc1c[nH]c2ccccc12)C(=O)O)C(=O)CCOCC(COCCC(=O)N(CCC(=O)N(CCC(=O)N[C@@H](Cc1c[nH]c2ccccc12)C(=O)O)CCC(=O)N[C@@H](Cc1c[nH]c2ccccc12)C(=O)O)CCC(=O)N(CCC(=O)N[C@@H](Cc1c[nH]c2ccccc12)C(=O)O)CCC(=O)N[C@@H](Cc1c[nH]c2ccccc12)C(=O)O)(COCCC(=O)N(CCC(=O)N(CCC(=O)N[C@@H](Cc1c[nH]c2ccccc12)C(=O)O)CCC(=O)N[C@@H](Cc1c[nH]c2ccccc12)C(=O)O)CCC(=O)N(CCC(=O)N[C@@H](Cc1c[nH]c2ccccc12)C(=O)O)CCC(=O)N[C@@H](Cc1c[nH]c2ccccc12)C(=O)O)COCCC(=O)N(CCC(=O)N(CCC(=O)N[C@@H](Cc1c[nH]c2ccccc12)C(=O)O)CCC(=O)N[C@@H](Cc1c[nH]c2ccccc12)C(=O)O)CCC(=O)N(CCC(=O)N[C@@H](Cc1c[nH]c2ccccc12)C(=O)O)CCC(=O)N[C@@H](Cc1c[nH]c2ccccc12)C(=O)O)N[C@@H](Cc1c[nH]c2ccccc12)C(=O)O`, the EC50 was 45 ± 0.05 µM (human coronavirus 229E; viral replication).
`C[C@H](CS)C(=O)N[C@@H](Cc1c[nH]c2ccccc12)C(=O)O`: “MIC of meropenem” 32 mg/L (Escherichia coli; IMP-1 producing; 50 µM, added: meropenem).
For `NC1=NC2(CCCCC2)N(c2ccc(OCc3cn(CCCCOc4ccc5ccc(=O)oc5c4)nn3)cc2)C(N)=N1`, the MIC50 was 3.2 µM (≈ 1.83 µg/mL) (Mycobacterium bovis BCG; resistant, fbiA L109P).
With `CC[C@H](C)[C@H](NC(=O)[C@H](C)NC(=O)[C@H](CCC(=O)O)NC(=O)[C@H](CCC(=O)O)NC(=O)[C@H](CC(C)C)NC(=O)[C@H](CCCCN)NC(=O)[C@H](CCCCN)NC(=O)[C@H](CCSC)NC(=O)[C@H](CCC(=O)O)NC(=O)[C@H](Cc1ccc(O)cc1)NC(=O)[C@H](CCC(=O)O)NC(=O)[C@H](CC(C)C)NC(=O)[C@H](CC(=O)O)NC(=O)[C@H](CC(C)C)NC(=O)[C@H](Cc1ccccc1)NC(=O)[C@H](Cc1ccc(O)cc1)NC(=O)[C@@H](NC(=O)[C@H](CC(N)=O)NC(=O)[C@@H](NC(=O)[C@H](CCC(N)=O)NC(=O)[C@H](CC(=O)O)NC(=O)[C@H](CC(C)C)NC(=O)[C@@H](N)CO)[C@@H](C)CC)C(C)C)C(=O)N[C@@H](CCCCN)C(=O)N[C@@H](CCCCN)C(=O)N[C@@H](CC(C)C)C(=O)N[C@@H](CCC(=O)O)C(=O)N[C@@H](CCC(=O)O)C(=O)N[C@H](C(=O)N[C@@H](Cc1ccc(O)cc1)C(=O)N[C@H](C(=O)N[C@@H](CC(=O)O)C(=O)N[C@@H](CC(C)C)C(=O)N[C@@H](CCCCN)C(=O)N[C@@H](CCC(=O)O)C(=O)N[C@@H](CC(C)C)C(=O)O)[C@@H](C)CC)[C@@H](C)O` the IC50 was 0.409 µM (HCoV-OC43; viral infection, inhibitor, immunostaining; HCT-8; 2 days, dual mutations).

For quick reference, copied from above:
For `O=C(CCN(CCC(=O)N[C@@H](Cc1c[nH]c2ccccc12)C(=O)O)C(=O)CCN(CCC(=O)N(CCC(=O)N[C@@H](Cc1c[nH]c2ccccc12)C(=O)O)CCC(=O)N[C@@H](Cc1c[nH]c2ccccc12)C(=O)O)C(=O)CCOCC(COCCC(=O)N(CCC(=O)N(CCC(=O)N[C@@H](Cc1c[nH]c2ccccc12)C(=O)O)CCC(=O)N[C@@H](Cc1c[nH]c2ccccc12)C(=O)O)CCC(=O)N(CCC(=O)N[C@@H](Cc1c[nH]c2ccccc12)C(=O)O)CCC(=O)N[C@@H](Cc1c[nH]c2ccccc12)C(=O)O)(COCCC(=O)N(CCC(=O)N(CCC(=O)N[C@@H](Cc1c[nH]c2ccccc12)C(=O)O)CCC(=O)N[C@@H](Cc1c[nH]c2ccccc12)C(=O)O)CCC(=O)N(CCC(=O)N[C@@H](Cc1c[nH]c2ccccc12)C(=O)O)CCC(=O)N[C@@H](Cc1c[nH]c2ccccc12)C(=O)O)COCCC(=O)N(CCC(=O)N(CCC(=O)N[C@@H](Cc1c[nH]c2ccccc12)C(=O)O)CCC(=O)N[C@@H](Cc1c[nH]c2ccccc12)C(=O)O)CCC(=O)N(CCC(=O)N[C@@H](Cc1c[nH]c2ccccc12)C(=O)O)CCC(=O)N[C@@H](Cc1c[nH]c2ccccc12)C(=O)O)N[C@@H](Cc1c[nH]c2ccccc12)C(=O)O`, the EC50 was 45 ± 0.05 µM (human coronavirus 229E; viral replication).
With `CC[C@H](C)[C@H](NC(=O)[C@H](C)NC(=O)[C@H](CCC(=O)O)NC(=O)[C@H](CCC(=O)O)NC(=O)[C@H](CC(C)C)NC(=O)[C@H](CCCCN)NC(=O)[C@H](CCCCN)NC(=O)[C@H](CCSC)NC(=O)[C@H](CCC(=O)O)NC(=O)[C@H](Cc1ccc(O)cc1)NC(=O)[C@H](CCC(=O)O)NC(=O)[C@H](CC(C)C)NC(=O)[C@H](CC(=O)O)NC(=O)[C@H](CC(C)C)NC(=O)[C@H](Cc1ccccc1)NC(=O)[C@H](Cc1ccc(O)cc1)NC(=O)[C@@H](NC(=O)[C@H](CC(N)=O)NC(=O)[C@@H](NC(=O)[C@H](CCC(N)=O)NC(=O)[C@H](CC(=O)O)NC(=O)[C@H](CC(C)C)NC(=O)[C@@H](N)CO)[C@@H](C)CC)C(C)C)C(=O)N[C@@H](CCCCN)C(=O)N[C@@H](CCCCN)C(=O)N[C@@H](CC(C)C)C(=O)N[C@@H](CCC(=O)O)C(=O)N[C@@H](CCC(=O)O)C(=O)N[C@H](C(=O)N[C@@H](Cc1ccc(O)cc1)C(=O)N[C@H](C(=O)N[C@@H](CC(=O)O)C(=O)N[C@@H](CC(C)C)C(=O)N[C@@H](CCCCN)C(=O)N[C@@H](CCC(=O)O)C(=O)N[C@@H](CC(C)C)C(=O)O)[C@@H](C)CC)[C@@H](C)O` the IC50 was 0.409 µM (HCoV-OC43; viral infection, inhibitor, immunostaining; HCT-8; 2 days, dual mutations).
